{"data": "Assay results gathered from unrelated publications", "UCHL1": "Ubiquitin carboxyl-terminal hydrolase isozyme L1 (UCHL1, Homo sapiens, UniProt P09936)", "note": "± gives the spread as reported.", "sequence of UniProt P09936 (whole entry, looked up)": "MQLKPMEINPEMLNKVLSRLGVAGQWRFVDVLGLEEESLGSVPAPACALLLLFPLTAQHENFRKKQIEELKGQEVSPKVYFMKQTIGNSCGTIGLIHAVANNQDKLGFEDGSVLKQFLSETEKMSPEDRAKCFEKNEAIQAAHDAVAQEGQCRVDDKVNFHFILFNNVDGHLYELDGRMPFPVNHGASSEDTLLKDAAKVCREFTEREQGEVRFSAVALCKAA"}
{"SMILES": "CCOC(=O)/C=C\\C(=O)OCC", "target or system": "HepG2", "test": "high content imaging, measured: cell count", "setting": "24 h, distribution mode 1", "measurement": "point of departure", "value": "22.4 µM"}
{"SMILES": "Nc1ccn([C@H]2CC[C@@H](CO)O2)c(=O)n1", "target or system": "HepG2", "test": "qPCR", "setting": "2.0 µM, 10 days, 1", "scale": "relative to: untreated", "measurement": "mitochondrial DNA content", "value": "10 ± 3.8%"}
{"SMILES": "CC(C)(C)c1cc(O)ccc1O", "target or system": "HepG2", "test": "extracellular flux, measured: oxygen consumption rate", "setting": "24 h, distribution mode 2", "measurement": "point of departure", "value": "162 µM"}
{"SMILES": "N#CC(=Cc1ccc([N+](=O)[O-])c(Cl)c1)C(=O)NC1CCCCC1", "target or system": "UCHL1", "test": "covalent, intact protein LC-MS", "setting": "12.5 µM", "measurement": "labelling", "value": "16.7%"}
{"SMILES": "COc1ccc(NC(=O)c2c(Nc3ccccc3)sc(C(=O)NN=Cc3ccc(OC)c(O)c3)c2NC(C)=O)cc1", "target or system": "HepG2", "test": "annexin V-FITC/PI", "setting": "concentration not given", "measurement": "necrotic cells", "value": "2.06%"}
{"SMILES": "CCOC(=O)c1nn(-c2cccc(Cl)c2)/c(=N/N=C(\\C)c2ccc(NC(=O)c3ccccc3)cc2)s1", "target or system": "HepG2", "test": "MTT", "setting": "10 µM", "measurement": "cytotoxicity", "value": "97%"}
{"SMILES": "COc1ccc(-n2nc(C(C)=O)s/c2=N\\N=C(/C)c2ccc(NC(=O)c3ccccc3)cc2)cc1", "target or system": "HepG2", "setting": "10 µM", "measurement": "viability", "value": "3.13%"}
{"SMILES": "O=C(O)Cc1ccccc1Nc1c(Cl)cccc1Cl", "target or system": "HepG2", "test": "measured: HIF1alpha level", "setting": "6 h, mode 2 of PoD distribution", "measurement": "point of departure", "value": "219 µM"}
{"SMILES": "CC(=O)c1nn(-c2ccc(C)cc2)/c(=N/N=C(\\C)c2ccc(NC(=O)c3ccccc3)cc2)s1", "target or system": "HepG2", "test": "MTT", "setting": "0.078 µM", "measurement": "cytotoxicity", "value": "26.4%"}
{"SMILES": "Cl.O=C(CCl)NCC1CN(Cc2ccccc2)CC12CCC2 (stereo not drawn)", "target or system": "UCHL1", "test": "covalent, intact protein LC-MS", "setting": "12.5 µM", "measurement": "labelling", "value": "16.6%"}
{"SMILES": "COc1ccc(NC(=O)c2c(Nc3ccccc3)sc(C#N)c2NC(=O)CNc2ccc(Cl)cc2)cc1", "target or system": "HepG2", "test": "flow cytometry", "setting": "IC50, 24 h", "measurement": "cells in G2/M", "value": "21.2 ± 3.12%"}
{"SMILES": "CC(=O)c1nn(-c2ccc(Cl)cc2)/c(=N/N=C(\\C)c2ccc(NC(=O)c3ccc(Cl)cc3)cc2)s1", "target or system": "HepG2", "setting": "10 µM", "measurement": "viability", "value": "7.4%"}
